Measured values pooled from the literature.
Each line is one published result; not all experiments were run side by side. Numbers after ± are the reported error.
U2AF2: U2AF2 148-342 (Homo sapiens, UniProt P26368)
Sequence of UniProt P26368 (whole entry, looked up): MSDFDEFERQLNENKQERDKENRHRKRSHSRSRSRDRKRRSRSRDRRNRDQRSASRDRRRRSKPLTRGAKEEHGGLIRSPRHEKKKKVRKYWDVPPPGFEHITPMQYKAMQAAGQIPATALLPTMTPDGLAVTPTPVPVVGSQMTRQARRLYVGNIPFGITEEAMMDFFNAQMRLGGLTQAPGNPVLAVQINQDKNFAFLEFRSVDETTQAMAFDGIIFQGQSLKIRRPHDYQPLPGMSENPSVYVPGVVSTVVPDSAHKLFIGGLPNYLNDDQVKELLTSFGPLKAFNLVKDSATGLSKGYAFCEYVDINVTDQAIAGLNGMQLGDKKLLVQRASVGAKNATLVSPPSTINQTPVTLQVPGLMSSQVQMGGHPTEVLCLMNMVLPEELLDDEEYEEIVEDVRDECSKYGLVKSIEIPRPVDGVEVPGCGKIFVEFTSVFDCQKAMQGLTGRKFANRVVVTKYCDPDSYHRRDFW
B1: human hnRNP U; sequence looked up; chain SSSPVNVKKLKVSELKEELKKRRLSDKGLKAELMERLQAALDDEEAGGRPAMEPGNGSLDLGGDSAGRSGAGLEQEAAAGGDEEEEEEEEEEEGISALDGDQMELGEENGAAGAADSGPMEEEEAASEDENGDDQGFQEGEDELGDEEEGAGDENGHGEQQPQPPATQQQQPQQQRGAAKEAAGKSSGPTSLFAVTVAPPGARQGQQQAGGKKKAEGGGGGGRPGAPAAGDGKTEQKGGDKKRGVKRPREDHGRGYFEYIEENKYSRAKSPQPPVEEEDEHFDDTVVCLDTYNCDLHFKISRDRLSASSLTMESFAFLWAGGRASYGVSKGKVCFEMKVTEKIPVRHLYTKDIDIHEVRIGWSLTTSGMLLGEEEFSYGYSLKGIKTCNCETEDYGEKFDENDVITCFANFESDEVELSYAKNGQDLGVAFKISKEVLAGRPLFPHVLCHNCAVEFNFGQKEKPYFPIPEEYTFIQNVPLEDRVRGPKGPEEKKDCEVVMMIGLPGAGKTTWVTKHAAENPGKYNILGTNTIMDKMMVAGFKKQMADTGKLNTLLQRAPQCLGKFIEIAARKKRNFILDQTNVSAAAQRRKMCLFAGFQRKAVVVCPKDEDYKQRTQKKAEVEGKDLPEHAVLKMKGNFTLPEVAECFDEITYVELQKEEAQKLLEQYKEESKKALPPEKKQNTGSKKSNKNKSGKNQFNRGGGHRGRGGFNMRGGNFRGGAPGNRGGYNRRGNMPQRGGGGGGSGGIGYPYPRAPVFPGRGSYSNRGNYNRGGMPNRGNYNQNFRGRGNNRGYKNQSQGYNQWQQGQFWGQKPWSQHYHQGYY
B2: human DDX17; sequence looked up; chain MPTGFVAPILCVLLPSPTREAATVASATGDSASERESAAPAAAPTAEAPPPSVVTRPEPQALPSPAIRAPLPDLYPFGTMRGGGFGDRDRDRDRGGFGARGGGGLPPKKFGNPGERLRKKKWDLSELPKFEKNFYVEHPEVARLTPYEVDELRRKKEITVRGGDVCPKPVFAFHHANFPQYVMDVLMDQHFTEPTPIQCQGFPLALSGRDMVGIAQTGSGKTLAYLLPAIVHINHQPYLERGDGPICLVLAPTRELAQQVQQVADDYGKCSRLKSTCIYGGAPKGPQIRDLERGVEICIATPGRLIDFLESGKTNLRRCTYLVLDEADRMLDMGFEPQIRKIVDQIRPDRQTLMWSATWPKEVRQLAEDFLRDYTQINVGNLELSANHNILQIVDVCMESEKDHKLIQLMEEIMAEKENKTIIFVETKRRCDDLTRRMRRDGWPAMCIHGDKSQPERDWVLNEFRSGKAPILIATDVASRGLDVEDVKFVINYDYPNSSEDYVHRIGRTARSTNKGTAYTFFTPGNLKQARELIKVLEEANQAINPKLMQLVDHRGGGGGGGGRSRYRTTSSANNPNLMYQDECDRRLRGVKDGGRRDSASYRDRSETDRAGYANGSGYGSPNSAFGAQAGQYTYGQGTYGAAAYGTSSYTAQEYGAGTYGASSTTSTGRSSQSSSQQFSGIGRSGQQPQPLMSQQFAQPPGATNMIGYMGQTAYQYPPPPPPPPPSRK
B3: human TUBB; sequence looked up; chain MREIVHIQAGQCGNQIGAKFWEVISDEHGIDPTGTYHGDSDLQLDRISVYYNEATGGKYVPRAILVDLEPGTMDSVRSGPFGQIFRPDNFVFGQSGAGNNWAKGHYTEGAELVDSVLDVVRKEAESCDCLQGFQLTHSLGGGTGSGMGTLLISKIREEYPDRIMNTFSVVPSPKVSDTVVEPYNATLSVHQLVENTDETYCIDNEALYDICFRTLKLTTPTYGDLNHLVSATMSGVTTCLRFPGQLNADLRKLAVNMVPFPRLHFFMPGFAPLTSRGSQQYRALTVPELTQQVFDAKNMMAACDPRHGRYLTVAAVFRGRMSMKEVDEQMLNVQNKNSSYFVEWIPNNVKTAVCDIPPRGLKMAVTFIGNSTAIQELFKRISEQFTAMFRRKAFLHWYTGEGMDEMEFTEAESNMNDLVSEYQQYQDATAEEEEDFGEEAEEEA

For `human RGPD4`, “log2 fold change” read -1.06 (CYB5R4 knockout human cells; PP4 interaction, 3xFLAG-PP4C IP-MS; concentration not given; relative to: CYB5R4 KO over parental).
The phosphorylation level of `Peginesatide` is reported as 6.6 fold (UT7/EPO; tyrosine phosphorylation, LC-MS/MS phosphoproteomics, trypsin, measured: VAV1 tyrosine 603; 10 nM, 15 min, with: 10 U/mL EPO; relative to: vehicle).
`human ME2 R70K` gave a Hill coefficient of 1.13 ± 0.09 (enzyme activity, NADH absorbance; with fumarate 3 mM, with: L-malate varied).
Under “log2 fold change”, `B1 (human hnRNP U)` is recorded as -0.66 (CYB5R4 knockout human cells; PP4 interaction, 3xFLAG-PP4C IP-MS; concentration not given; relative to: CYB5R4 KO over parental).
For `epoetin alfa`, the mRNA level was 4.3 fold (UT7/EPO; microarray, measured: RAB11FIP1 (probe 219681_s_at); 5 U/mL, 90 min, with: SCF 10 nM; relative to: vehicle).
The selectivity ratio of `MTVCNASQRQAHAQATAVSL` is reported as 4.2 ± 0.94 (H2087; phage binding; peptide; relative to: targeting over control phage).
For `recombinant human interleukin-1 beta`, “decrease in mRNA level” read 45 to 50% (enteroid monolayers; RT-qPCR, measured: ABCC1; 10 ng/mL, 48 h).
Under “log2 fold change”, `proteasome subunit alpha-2 (human)` is recorded as 0.64 (CYB5R4 knockout human cells; PP4 interaction, 3xFLAG-PP4C IP-MS; concentration not given; relative to: CYB5R4 KO over parental).
`YLEPIYLEY` has a GFP-positive cells of 0.467% (Jurkat expressing engineered TCR; NFAT-eGFP reporter, fluorescence microscopy; peptide; concentration not given, HLA-A*01:01 on EL4 cells).
For `PFVYLIRFHRFHRFHGGGSSSQLSRP`, the transfection efficiency was roughly 95% (HEK293T; circRNA delivery, measured: mCherry; peptide; concentration not given, 48 h).
`ATDIIPLAM` gave a GFP-positive cells of 0.487% (Jurkat expressing engineered TCR; NFAT-eGFP reporter, fluorescence microscopy; peptide; concentration not given, HLA-A*01:01 on EL4 cells).
The Kd of `AAUUUUUGU (ssRNA)` is reported as 1850 nM (U2AF2; sequencing of bound RNA; RNA; motif only).
The GFP-positive cells of `YLEPIYLGY` is reported as 0.44% (Jurkat expressing engineered TCR; NFAT-eGFP reporter, fluorescence microscopy; peptide; concentration not given, HLA-A*01:01 on EL4 cells).
`B2 (human DDX17)` — result for “log2 fold change”: -0.96 (CYB5R4 knockout human cells; PP4 interaction, 3xFLAG-PP4C IP-MS; concentration not given; relative to: CYB5R4 KO over parental).
`YLDPLQPEY` gave a GFP-positive cells of 0.748% (Jurkat expressing engineered TCR; NFAT-eGFP reporter, fluorescence microscopy; peptide; concentration not given, HLA-A*01:01 on EL4 cells).
The Kd of `GCUUUUGUA (ssRNA)` is reported as 900 nM (U2AF2; sequencing of bound RNA; RNA; motif only).
For `QIDPVGYEY`, the GFP-positive cells was 0.476% (Jurkat expressing engineered TCR; NFAT-eGFP reporter, fluorescence microscopy; peptide; concentration not given, HLA-A*01:01 on EL4 cells).
Under “log2 fold change”, `B3 (human TUBB)` is recorded as -0.65 (CYB5R4 knockout human cells; PP4 interaction, 3xFLAG-PP4C IP-MS; concentration not given; relative to: CYB5R4 KO over parental).

Repeated from above:
For `human RGPD4`, “log2 fold change” read -1.06 (CYB5R4 knockout human cells; PP4 interaction, 3xFLAG-PP4C IP-MS; concentration not given; relative to: CYB5R4 KO over parental).
The phosphorylation level of `Peginesatide` is reported as 6.6 fold (UT7/EPO; tyrosine phosphorylation, LC-MS/MS phosphoproteomics, trypsin, measured: VAV1 tyrosine 603; 10 nM, 15 min, with: 10 U/mL EPO; relative to: vehicle).
`human ME2 R70K` gave a Hill coefficient of 1.13 ± 0.09 (enzyme activity, NADH absorbance; with fumarate 3 mM, with: L-malate varied).
